Results collected from several papers.
Protocols differ between the studies behind these lines. ± gives the spread as reported.
Ache: Acetylcholinesterase (Ache, Mus musculus, UniProt P21836)
Botulinum neurotoxin type A light chain: Botulinum neurotoxin type A, light chain (Clostridium botulinum, UniProt P0DPI0)
rep nsp12 with nsp7/nsp8: Replicase polyprotein 1ab, nsp12 with nsp7/nsp8 (rep, Severe acute respiratory syndrome coronavirus 2, UniProt P0DTD1)

Chains of the proteins cited; added tags and fusions are not shown.
UniProt P21836, whole entry, looked up: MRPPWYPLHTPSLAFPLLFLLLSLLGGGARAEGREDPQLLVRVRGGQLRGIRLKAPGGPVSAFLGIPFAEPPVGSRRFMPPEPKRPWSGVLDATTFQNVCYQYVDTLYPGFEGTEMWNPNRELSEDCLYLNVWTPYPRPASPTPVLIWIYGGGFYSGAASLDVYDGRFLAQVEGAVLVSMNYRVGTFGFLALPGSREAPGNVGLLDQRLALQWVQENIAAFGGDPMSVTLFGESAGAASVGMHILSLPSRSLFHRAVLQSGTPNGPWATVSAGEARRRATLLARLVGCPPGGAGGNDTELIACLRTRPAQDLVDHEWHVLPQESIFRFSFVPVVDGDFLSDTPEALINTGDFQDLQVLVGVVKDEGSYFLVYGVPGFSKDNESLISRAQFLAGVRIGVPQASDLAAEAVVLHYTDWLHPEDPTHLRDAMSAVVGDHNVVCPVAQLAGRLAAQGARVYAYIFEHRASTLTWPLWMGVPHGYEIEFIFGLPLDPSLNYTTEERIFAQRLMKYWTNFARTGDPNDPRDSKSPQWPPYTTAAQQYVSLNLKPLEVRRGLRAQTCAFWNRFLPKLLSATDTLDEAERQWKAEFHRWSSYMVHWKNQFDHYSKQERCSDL
UniProt P35372, whole entry: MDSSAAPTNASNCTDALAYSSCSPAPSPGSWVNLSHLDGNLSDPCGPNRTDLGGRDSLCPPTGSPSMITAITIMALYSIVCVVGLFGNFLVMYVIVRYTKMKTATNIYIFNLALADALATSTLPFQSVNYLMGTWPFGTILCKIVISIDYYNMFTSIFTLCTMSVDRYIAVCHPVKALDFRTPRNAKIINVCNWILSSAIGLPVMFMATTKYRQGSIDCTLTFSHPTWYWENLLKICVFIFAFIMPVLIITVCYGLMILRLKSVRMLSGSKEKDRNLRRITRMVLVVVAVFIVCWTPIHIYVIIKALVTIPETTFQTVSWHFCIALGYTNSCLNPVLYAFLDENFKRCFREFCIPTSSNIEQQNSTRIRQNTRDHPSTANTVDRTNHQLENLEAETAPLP

Compound	tested on	test	system	setting	measurement	value
CCOP(=S)(OCC)Oc1ccc([N+](=O)[O-])cc1	Ache	–	ES1+/+ mice, plasma	subcutaneous, 12.5 mg/kg, 6.0 h, toxicant challenge	inhibition	56 ± 2.3%
CS(=O)(=O)SCCCNC(=O)CC(CC(=O)O)c1ccc(Cl)cc1Cl (centres unmarked)	Botulinum neurotoxin type A light chain	–	–	up to 500 µM	inhibition	no inhibition
CN(C(=O)Cc1ccc(Cl)c(Cl)c1)[C@H]1CC[C@@]2(CCCO2)C[C@@H]1N1CCCC1	rep nsp12 with nsp7/nsp8	RdRp activity, inhibitor	–	20 µM	inhibition	-4.66%
NC(Cc1ccc([N+]([O-])(CCCl)CCCl)cc1)C(=O)O (centres unmarked)	Replicase polyprotein 1ab, main protease (rep, Severe acute respiratory syndrome coronavirus 2, UniProt P0DTD1)	–	–	20 µM, hit confirmation	inhibition	9.1%
CNC(=O)Oc1cccc2c1OC(C)(C)C2	Ache	–	ES1+/+ mice, plasma	subcutaneous, 1.0 mg/kg, 0.5 h, toxicant challenge	inhibition	52 ± 5.6%
NC12CC3CC(CC(C3)C1)C2	Influenza A virus	viral replication	MDCK, A/Swine/Iowa/9-0814/2009 (H1N1)	–	EC50	≤ 100 µM
O=C(O)c1cc(-c2ccc(-c3c(-c4ccc5c(c4)OCO5)noc3-c3ccsc3)cc2)nc2ccccc12	Botulinum neurotoxin type A light chain	inhibitor, FRET, YFP-SNAP25-CFP substrate	–	concentration not given, full-length toxin	inhibition	inhibited
CN(C)[C@]1(c2ccccc2)CC[C@]2(CC1)OCCc1c3cc(F)ccc3[nH]c12	rep nsp12 with nsp7/nsp8	RdRp activity, inhibitor	–	20 µM	inhibition	-0.98%
CCOP(=S)(OCC)Oc1nc(Cl)c(Cl)cc1Cl	Ache	–	ES1+/+ mice, plasma	transdermal, 100.0 mg/kg, 6.0 h, toxicant challenge	inhibition	70.4 ± 6.6%
Cc1cc2c(-c3ccco3)cnc(N[C@@H]3CCN(C)C[C@H]3C(=O)NC3CCCCC3)c2[nH]c1=O	Mu-type opioid receptor (OPRM1, Homo sapiens, UniProt P35372)	binding, radioligand binding	–	10 µM	inhibition	27%
O=c1c(O)c(-c2ccc(O)c(O)c2)oc2cc(O)cc(O)c12	Replicase polyprotein 1ab, 3C-like proteinase (rep, Severe acute respiratory syndrome-related coronavirus, UniProt P0C6X7)	3CLpro cleavage, ELISA	–	concentration not given	inhibition	no inhibition

Repeated from above:
Compound	tested on	test	system	setting	measurement	value
CS(=O)(=O)SCCCNC(=O)CC(CC(=O)O)c1ccc(Cl)cc1Cl (centres unmarked)	Botulinum neurotoxin type A light chain	–	–	up to 500 µM	inhibition	no inhibition
NC(Cc1ccc([N+]([O-])(CCCl)CCCl)cc1)C(=O)O (centres unmarked)	Replicase polyprotein 1ab, main protease (rep, Severe acute respiratory syndrome coronavirus 2, UniProt P0DTD1)	–	–	20 µM, hit confirmation	inhibition	9.1%
